Published values of several laboratories.
Values joined by “and” are separate records of one study, mostly repeats; a detail may differ. Numbers after ± are the reported error.
HTR2A: 5-hydroxytryptamine receptor 2A (HTR2A, Homo sapiens, UniProt P28223)
GUK1: GUK1 (Homo sapiens, UniProt Q16774)
T1: neomycin riboswitch RNA, 5'-triphosphate, 2',3'-cyclic phosphate; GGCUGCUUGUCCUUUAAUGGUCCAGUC

With `O=C1c2ccccc2CCCN1CCCCN1CCN(c2ccccn2)CC1` the inhibition was 89.2% (HTR2A; radioligand binding; concentration not given, added: [3H]ketanserin).
`C[S+](CC[C@H](N)C(=O)[O-])C[C@H]1O[C@@H](n2cnc3c(N)ncnc32)[C@H](O)[C@@H]1O` (stereo partly shown) has an apparent Vmax of 4 ± 0.2 µM/min (KMT2C (Homo sapiens, UniProt Q8NEZ4); substrate, enzyme-coupled methylation; added: H3 peptide 800 µM).
For `Nc1ncnc2c1ncn2[C@@H]1O[C@H](COP(=O)(O)OP(=O)(O)OP(=O)(O)O)[C@@H](O)[C@H]1O`, the Km was 40 ± 3 µM (Arsenical pump-driving ATPase (arsA, Escherichia coli, UniProt P08690)).
`c1ccc(-c2n[nH]cc2-c2ccnc3ccccc23)nc1`: “log2 fold change” 1.45 (Protein kinase C-like 1 (Candida albicans, UniProt P43057); kinase binding, competitor, MIB/MS competition, measured: PKC1; Candida albicans cell lysate; 10 µM; relative to: DMSO).
For `CNS(=O)(=O)Cc1ccc2[nH]cc(CCN(C)C)c2c1`, the Z score was 3.18 (TDP1 (Homo sapiens, UniProt Q9NUW8); binding, small molecule microarray; added: AF647-labelled TDP1 1 µM; direction not given).
With `[Cl-].[K+]` the reaction velocity was -0.0169 µM/s and -0.0117 µM/s and 0.000403 µM/s (GUK1; enzyme activity, NADH-coupled; 90 mM).
`CN(C)C(=O)C(CCN1CCC(O)(c2ccc(Cl)cc2)CC1)(c1ccccc1)c1ccccc1` has a normalized Gmax of 0.443 (Calcium-activated potassium channel subunit alpha-1, with LRRC26 γ1 subunit (KCNMA1, Homo sapiens, UniProt Q12791); BK current, inhibitor, inside-out patch clamp; excised membrane patch; 3 µM, γ1 subunit coexpressed, added: nominally 0 Ca2+ cytosolic; relative to: without loperamide).
The current density of `Nc1ccc(C(=O)O)cc1` is reported as 3.87 pA/pF and 2.44 pA/pF and 1.54 pA/pF and 3.16 pA/pF and 7.66 pA/pF and 2.76 pA/pF (BEST1, with wild-type BEST1 (Homo sapiens, UniProt O76090, Q293K); ion current, whole-cell patch clamp; HEK293 co-expressing mutant and wild-type; concentration not given, voltage 20 mV).
`COc1ccc2c(c1)CN(CCCN1CCN(c3ccccc3OC)CC1)C2=O` has an inhibition of 77.9% (HTR2A; radioligand binding; concentration not given, added: [3H]ketanserin).
`Cc1cc(Cl)cc(C)c1OCC(=O)NC(C)C` has an activity of 83 ± 4% (SLC6A19 (Homo sapiens, UniProt Q695T7); inhibitor, FLIPR membrane potential; CHO-BC cells; 30 µM, added: L-leucine 1.5 mM; relative to: cinromide).
`CCN1CCC[C@H]1CNC(=O)c1c(O)c(Cl)cc(Cl)c1OC` — result for “log2 fold change”: 0.329 (GPR84 (Homo sapiens, UniProt Q9NQS5); β-arrestin recruitment, TANGO luminescence; concentration not given; relative to: basal luminescence).
`Nc1ccc2cc3ccc(N)cc3nc2c1`: “entropic contribution TΔS° of binding” -17.7 ± 1.24 kcal/mol (Chymotrypsinogen A, activated (alpha-chymotrypsin) (Bos taurus, UniProt P00766); isothermal titration calorimetry; concentration not given, 25 °C, added: 0.5 M glycine).
`Nc1nc2c(ncn2[C@@H]2O[C@H](COP(=O)(O)O)[C@@H](O)[C@H]2O)c(=O)[nH]1` has a reaction velocity of 0.0508 µM/s and 0.0413 µM/s and 0.0388 µM/s (GUK1; enzyme activity, NADH-coupled; 15.62 µM, added: KCl 50 mM).
`NC[C@H]1O[C@H](O[C@H]2[C@H](O[C@@H]3O[C@H](CO)[C@@H](O)[C@H]3O)[C@@H](O)[C@H](N)C[C@@H]2N)[C@H](N)[C@@H](O)[C@@H]1O`: binding “binds” (T1, neomycin riboswitch RNA, 5'-triphosphate, 2',3'-cyclic phosphate; NMR; pH 6.2, 10 °C).
`C=CC(=O)N1CCC(COCC(=O)N2CCN(c3nc(-c4cnc(N)nc4C(F)F)nc(N4CCOC[C@@H]4C)n3)CC2)CC1` gave a remaining binding of 78% (MAP3K13 (Homo sapiens, UniProt O43283); KINOMEscan; 1 µM; relative to: DMSO control).
`CCS(=O)(=O)N1CC(CC#N)(n2cc(-c3ncnc4[nH]ccc34)cn2)C1`: “change in binding constant” -37.8% (ORM1 (Homo sapiens, UniProt P02763); added: Cu^2+).
`CC(NC(=O)CCCc1ccc2ccc3cccc4ccc1c2c34)C(=O)NO` (stereo not shown) has a binding stoichiometry of 0.8 (HDAC8 (Homo sapiens, UniProt Q9BY41); ITC; Tris-HCl buffer; concentration not given, 288 K).
`C=CC(=O)N1CCC(C(=O)NCC(=O)N2CCN(c3nc(-c4cnc(N)nc4C(F)F)nc(N4CCOCC4)n3)CC2)CC1` gave a remaining binding of 74% (PIKFYVE (Homo sapiens, UniProt Q9Y2I7); KINOMEscan; 1 µM).
Under “NADPH consumption rate, 18-hydroxylation”, `C[C@]12C[C@H](O)[C@H]3[C@@H](CCC4=CC(=O)CC[C@@]43C)[C@@H]1CC[C@@H]2C(=O)CO` is recorded as 35.5 ± 5.3 min⁻¹ (CYP11B2 (Homo sapiens, UniProt P19099); substrate; 100 µM, 37 °C, phospholipid vesicles).
`c1ccc(C(NCc2cccnc2)(c2ccccc2)c2ccccc2)cc1` — result for “fast over slow component rate”: ~50 fold (KCNQ1 (Homo sapiens, UniProt P51787); fractional inhibition kinetics).
`Cc1ccc(N2CC(C(N)=O)CC2=O)cc1` (stereo not shown) has a fold enrichment of 1.13 (Baculoviral IAP repeat-containing protein 3, BIR1 domain (BIRC3, Homo sapiens, UniProt Q13489); binding, affinity selection mass spectrometry; relative to: other proteins in batch).
`CC(=C/C(=O)O)/C=C/C=C(\C)C1C=C2C(C)(C)CCCC2(C)O1` (stereo not shown) — result for “plasma membrane localization”: 0.6 (Rhodopsin (RHO, Homo sapiens, UniProt P08100, P23H); immunostaining, measured: opsin; COS-7 transfected; 10.00 µM, unit not given; relative to: surface over total stained cells).
With `O=C1c2ccccc2CCN1CCCCN1CCN(c2ccccn2)CC1` the inhibition was 95.2% (HTR2A; radioligand binding; concentration not given, added: [3H]ketanserin).
For `Nc1ncnc2c1ncn2[C@@H]1O[C@H](COP(=O)(O)CP(=O)(O)OP(=O)(O)O)[C@@H](O)[C@H]1O`, the calcium influx was 83.8% and 100% (P2X purinoceptor 1 (P2RX1, Homo sapiens, UniProt P51575); calcium influx; 1 µM; relative to: ionomycin response).
`COC(=O)CC1CC(c2ccc(O)cc2)=NO1` (stereo not shown) — result for binding inhibition: “no inhibition” (MIF (Homo sapiens, UniProt P14174); inhibitor, ELISA; up to 50 µM).
For `NCCCS(=O)(=O)O`, the fraction bound was 0.000419 (SLC6A6 (Homo sapiens, UniProt P31641, Y138A); binding, microscale thermophoresis; 46.3 nM, fitted curve; higher = more binding).
For `CN(CCCCNC(=O)c1cc2ccccc2[nH]1)[C@@H]1Cc2cccc3[nH]c(=O)n(c23)C1`, the Hill slope was -1.06 ± 0.18 (HTR2A; binding; added: [3H]5-HT).
`Cc1ccccc1C1CC(=O)c2c(C)nc(N)nc2C1` (stereo not shown) has a fold enrichment of 0.895 (RFWD3 (Homo sapiens, UniProt Q6PCD5); binding, affinity selection mass spectrometry; relative to: other proteins in batch).
With `O=C(O)c1ccc(Nc2ncc3c(n2)-c2ccc(Cl)cc2C(c2c(F)cccc2F)=NC3)cc1` the remaining activity was 120% (ROCK-I(h); kinase activity; 1 µM).
With `O=[N+]([O-])c1ccc(O[C@@H]2O[C@H](CO)[C@@H](O)[C@H](O)[C@H]2O)cc1` the kcat was 85 ± 4 s⁻¹ (bglA (Thermotoga maritima, UniProt Q08638); substrate, absorbance; pH 6.8, 37 °C, added: p-nitrophenyl β-D-glucopyranoside 0.125-4 mM).
`Cc1cccc(N2CC(C(=O)O)CC2=O)c1` (stereo not shown) — result for “log fold enrichment”: -0.0805 (STUB1 (Homo sapiens, UniProt Q9UNE7); binding, affinity selection mass spectrometry; relative to: other proteins in batch).
With `C[C@@H](O)CNC(C)(C)CC(=O)N[C@@H]1CCc2ccccc2N(Cc2ccc(-c3ccccc3-c3nn[nH]n3)cc2)C1=O` the Hill slope was 1 (GHSR (Homo sapiens, UniProt Q92847); calcium mobilization; HEK293, stably transfected).
For `CC1CCCN(C(=O)c2cc3ncccn3n2)C1` (stereo not shown), the fold enrichment was 0.69 (WD repeat-containing protein 55 (WDR55, Homo sapiens, UniProt Q9H6Y2); binding, affinity selection mass spectrometry; relative to: other proteins in batch).
Under “ATP hydrolysis rate”, `O=c1nc(SCc2cc(F)cc(C(F)(F)F)c2)nc(SCc2ccc3sccc3c2)[nH]1` is recorded as 1.9 µM/min and 1.74 µM/min (TOP2A (Homo sapiens, UniProt P11388); ATPase activity; 3.9 µM, added: ATP 0.5 mM).

Excerpt of the above:
With `[Cl-].[K+]` the reaction velocity was -0.0169 µM/s and -0.0117 µM/s and 0.000403 µM/s (GUK1; enzyme activity, NADH-coupled; 90 mM).
`CN(C)C(=O)C(CCN1CCC(O)(c2ccc(Cl)cc2)CC1)(c1ccccc1)c1ccccc1` has a normalized Gmax of 0.443 (Calcium-activated potassium channel subunit alpha-1, with LRRC26 γ1 subunit (KCNMA1, Homo sapiens, UniProt Q12791); BK current, inhibitor, inside-out patch clamp; excised membrane patch; 3 µM, γ1 subunit coexpressed, added: nominally 0 Ca2+ cytosolic; relative to: without loperamide).
The current density of `Nc1ccc(C(=O)O)cc1` is reported as 3.87 pA/pF and 2.44 pA/pF and 1.54 pA/pF and 3.16 pA/pF and 7.66 pA/pF and 2.76 pA/pF (BEST1, with wild-type BEST1 (Homo sapiens, UniProt O76090, Q293K); ion current, whole-cell patch clamp; HEK293 co-expressing mutant and wild-type; concentration not given, voltage 20 mV).
`COc1ccc2c(c1)CN(CCCN1CCN(c3ccccc3OC)CC1)C2=O` has an inhibition of 77.9% (HTR2A; radioligand binding; concentration not given, added: [3H]ketanserin).
